Results from different studies.
Each numbered part is a random draw from the data of one study; scales do not carry over between parts.

Study 1 — technique: aptamer microarray, sandwich; form: DNA with 2'F-ANA; sample: in vitro; tested at: 200 nM; added: Cy3 exosite-II aptamer, 400 nM; direction: higher = stronger binding; endpoint: mean fluorescence intensity; sequence: GGTTGGTGTGGTTGG
Target: Prothrombin, mature alpha-thrombin (F2, Homo sapiens, UniProt P00734)
Notes: whole 15-mer aptamer, many near background
2'F-ANA at 2 5 7 9 11 15: 59 a.u.
2'F-ANA at 1 3 6 7 8 10 11 14 15: 63.8 a.u.
2'F-ANA at 2 3 6 13 15: 559 a.u.
2'F-ANA at 3 6 7 9 10 14: 390 a.u.
2'F-ANA at 5 6 8 11 13 14 15: 56.4 a.u.

Study 2 — technique: RNA Bind-n-Seq; form: RNA; sample: in vitro; tested at: 1 µM; notes: whole 134-nt RNA, ends assumed; added: 150 mM KCl; baseline: input library; direction: higher = stronger binding; endpoint: log2 enrichment
Target: Ras GTPase-activating protein-binding protein 1, C-terminal RGG region (G3BP1, Homo sapiens, UniProt Q13283)
Sequence of UniProt Q13283 (whole entry, looked up): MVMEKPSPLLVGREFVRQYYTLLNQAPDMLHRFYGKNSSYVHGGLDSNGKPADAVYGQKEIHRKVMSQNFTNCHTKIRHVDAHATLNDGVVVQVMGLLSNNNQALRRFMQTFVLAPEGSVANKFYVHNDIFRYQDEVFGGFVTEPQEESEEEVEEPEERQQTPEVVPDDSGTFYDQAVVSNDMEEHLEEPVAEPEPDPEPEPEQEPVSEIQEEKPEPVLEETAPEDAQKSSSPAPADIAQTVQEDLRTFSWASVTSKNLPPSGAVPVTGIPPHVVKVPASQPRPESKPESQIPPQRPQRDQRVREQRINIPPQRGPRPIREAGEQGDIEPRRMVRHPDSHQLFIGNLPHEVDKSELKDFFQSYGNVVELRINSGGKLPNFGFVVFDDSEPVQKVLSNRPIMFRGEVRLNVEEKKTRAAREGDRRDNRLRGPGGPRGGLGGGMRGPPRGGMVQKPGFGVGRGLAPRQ
GGGAGUUCUACAGUCCGACGAUCGCAGGAACUAAAAACAAAUGGAAAUGCUUCGGAUAGUGGCAGGGGUGGGGGUUGCUAAGGAAAGGGUGGGAUGGGAGUGGGUAAAGAGUUUGGAAUUCUCGGGUGUCAAGG: 1.84
GGGAGUUCUACAGUCCGACGAUCCACAGACAACACGCACCCACACAGACACAGAGGGAAGGGGUUGGGAUGGGGACAGGGUGCACAGCAGGGCGGGGUAGGACCCCAGCCCGUUGGAAUUCUCGGGUGUCAAGG: -0.981
GGGAGUUCUACAGUCCGACGAUCUGUGCUACACAUCGUAUGUACCGAAUCGGGCCCCCCCGGGGCCCCCCCGGGGCCCCCCCGGGGAAAGUAUUAUGUUACGCCGUUCGGAUCUGGAAUUCUCGGGUGUCAAGG: -2.68
GGGAGUUCUACAGUCCGACGAUCACUAUGCAGGUGGGCAUCUUUGGGAAGUGGGGCAAGGGGGGGAUAGGGAGGGGGGUAACACUUUGGGAACAGGUGGUCCCAGGUCGUUUCUGGAAUUCUCGGGUGUCAAGG: -0.658

Study 3 — technique: universal PBM; form: double-stranded DNA, one strand shown; sample: in vitro; tested at: not given; direction: higher = stronger binding; endpoint: E-score
Target: Sal-like protein 4, full length isoform B (SALL4, Homo sapiens, UniProt Q9UJQ4-2, residues 1-616)
Notes: 8-mer, flanks averaged, mean of replicates
TGGACGAA: 0.154
AAGTCCGA: -0.142
GGGAGCCC: -0.402
CCTCACAG: -0.158

Mixed results
PhoQ, residues 284 288 289 292 302 303 AEGLLW — fold induction (PhoP, residues 12 14 15 18 19 SEGLL (Escherichia coli, UniProt P23836); Sort-seq, refers to: YFP reporter; E. coli; PhoQ-PhoP variant library, added: 10 µM Mg2+; baseline: high Mg2+ state, higher = stronger signaling): 2.03
